Published values gathered from unrelated publications.
Numbered parts are unrelated; each lists some results of a single study. Changes are numbered by the printed parent chain.

Sample 1 — technique: RNA Bind-n-Seq; molecule type: RNA; medium: in vitro; tested at: 365 nM; reference: no-protein control; direction: higher = stronger binding; quantity: RBNS enrichment (R)
Target: RNA binding protein fox-1 homolog 2, RRM domain, GST-SBP tag (RBFOX2, Homo sapiens, UniProt O43251-10, residues 100-194)
Notes: natural RNA segment, single round, ends assumed
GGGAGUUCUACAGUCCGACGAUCUUUAGUUGUCAUAUAAAAACCCACUGUUUGAGAAUGAUGCUACUCUGAUCUAAUGAAUGUGAACAUGUAGAUGUUUUGUGUGUAUUUUUUUAAAUGAAAACUCAAAAUAAUGGAAUUCUCGGGUGCCAA: 3.95
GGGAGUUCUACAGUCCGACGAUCAAAAAGAAGGAAAAAAAAGGCUGCAUUUUAAAAUUAUUUCCUUAGAAUUAAAGAUACUACAUAGGGGCCCUUGGGUAAGCAAAUCCAUUUUUCCCAGAGGCUAUCUUGAUUGGAAUUCUCGGGUGCCAA: 3.73
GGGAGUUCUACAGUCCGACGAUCUUUGCCUUUGGCCUAGUAAGAUGCCUCUCCAGCUACUGAGCCCACAAGUAACAUGAGCGGAUAAAAAGAGACUUGUUUGUGCUAGAAAUGAGGGUCUAUGCUAUGAGGGGUGGAAUUCUCGGGUGCCAA: 1.16
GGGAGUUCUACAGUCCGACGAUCUUGCUCCUAAUGAUCAAAACCCCAAUUGCAACCAUGUGGCAAGUGGCCAGCUGAGCCCAGGUUACUUGGUACCCACUCUGCCUUGAGCCUUCCUUCCCCCAGGGCCUAUUUGGAAUUCUCGGGUGCCAA: 0.863
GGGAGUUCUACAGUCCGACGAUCCCAGUAAUGCACUUCCUUCAAAAGACCCCACCUCCUAAUCCUUGUAAUCUUCCUCAAACCAGUUCUGGGCUCUAGUGACUAGACAUUCAAAUAUAUGAGCCUAUGGGAACUGGAAUUCUCGGGUGCCAA: 0.569
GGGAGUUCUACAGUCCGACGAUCUUUCAACACCUGGCCCUUGCUCUCCUGCCCGUGCCAGGACUCCCUAACUCAGGGAGGGAGGGGAGGUCCUUAGCUGGGGGAAAGGAGGCGAGGGUCCUUACUGCUGUGUAUGGAAUUCUCGGGUGCCAA: 0.533

Sample 2 — target: CCNE1, cyclin fold, Cln2 fusion (human); technique: yeast growth competition, sequencing; medium: yeast; notes: weak parent motif; reference: not given; direction: higher = stronger binding; quantity: normalised enrichment score
Parent: RB1 docking peptide (human); PKPLKKLRFDIEG
PKPLKPLRFDIEG [K6P]: 0.829
PKPLKKLRFDIVG [E12V]: -0.0229
PKPLNKLRFDIEG [K5N]: 0.576

Sample 3 — technique: protein-binding microarray; molecule type: double-stranded DNA, one strand shown; medium: in vitro; tested at: 2200 nM top; notes: 60-bp whole probe; added: salmon DNA 0.4 mg/ml; reference: random background probes; direction: higher = stronger binding; quantity: fitted relative affinity; all sequences stand within: GCCTAGCAC … GTCTTGATTCGCTTGACGCTGCTG
Target: Interferon regulatory factor 7, full length, phosphomimetic (IRF7, Homo sapiens, UniProt Q92985, residues 1-503, S471D/S472D/S475D/S476D/S477D/S483D/S484D/S487D)
Target sequence (chain): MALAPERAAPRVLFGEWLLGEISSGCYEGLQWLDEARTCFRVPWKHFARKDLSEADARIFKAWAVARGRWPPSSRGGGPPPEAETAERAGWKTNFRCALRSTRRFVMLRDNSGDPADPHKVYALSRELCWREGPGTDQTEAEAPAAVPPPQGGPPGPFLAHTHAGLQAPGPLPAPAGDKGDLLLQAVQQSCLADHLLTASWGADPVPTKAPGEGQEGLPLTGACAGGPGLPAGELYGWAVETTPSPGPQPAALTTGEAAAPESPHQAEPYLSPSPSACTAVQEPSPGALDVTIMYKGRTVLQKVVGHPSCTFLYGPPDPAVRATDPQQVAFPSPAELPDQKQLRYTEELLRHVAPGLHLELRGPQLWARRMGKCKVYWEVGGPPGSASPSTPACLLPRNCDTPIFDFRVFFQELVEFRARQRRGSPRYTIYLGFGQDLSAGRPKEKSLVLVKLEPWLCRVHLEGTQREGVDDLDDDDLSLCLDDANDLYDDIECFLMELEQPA
GACGGTTTCCTACTGGTGACGTGCTAG: 1.6 z-score
TCATTTTTTTTTTTTTCACTGTGCTAG: 2.33 z-score
GACGATTTCAGTCTCGAGAAGTGCTAG: 0.785 z-score
AACACAAACCCGCTGGAGTTGTGCTAG: 0.158 z-score
GGAAATATTTACCTCTCACGGTGCTAG: 0.495 z-score
GACGAACTGCGGACTGGAGACGTGCTA: -0.304 z-score

Mixed results
PhoQ, residues 284 288 289 292 302 303 TNASYF
fold induction (PhoP, residues 12 14 15 18 19 AWHSL (Escherichia coli, UniProt P23836); Sort-seq, refers to: YFP reporter; E. coli; PhoQ-PhoP variant library, added: 10 µM Mg2+; reference: high Mg2+ state, higher = stronger signaling): 3.94

For quick reference, copied from above (sample 1):
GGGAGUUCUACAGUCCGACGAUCAAAAAGAAGGAAAAAAAAGGCUGCAUUUUAAAAUUAUUUCCUUAGAAUUAAAGAUACUACAUAGGGGCCCUUGGGUAAGCAAAUCCAUUUUUCCCAGAGGCUAUCUUGAUUGGAAUUCUCGGGUGCCAA: 3.73
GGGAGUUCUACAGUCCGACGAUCUUUGCCUUUGGCCUAGUAAGAUGCCUCUCCAGCUACUGAGCCCACAAGUAACAUGAGCGGAUAAAAAGAGACUUGUUUGUGCUAGAAAUGAGGGUCUAUGCUAUGAGGGGUGGAAUUCUCGGGUGCCAA: 1.16
